Assay results gathered from unrelated publications.
Protocols differ between the studies behind these lines. Values joined by “and” are separate records of one study, mostly repeats; a detail may differ.
Target: Ephrin type-A receptor 1 (EPHA1, Homo sapiens, UniProt P21709)

`C=CC(=O)N1CCc2ccc(-n3c(=O)ccc4cnc5ccc(-c6cnn(C)c6)cc5c43)cc21` gave a remaining binding of 100% (KINOMEscan; 1 µM; reference: DMSO control).
`Nc1ncc2c(n1)-c1c([nH]c3ccc(C4=CCOCC4)cc13)CCC2` gave a remaining binding of 95% (binding, competition with immobilised ligand; 1 µM).
`CNC1C[S+]2CC[S+]3CC[S+](C1)[Ru-4]321([N]=C=S)[n]2c3ccc(OC)cc3c3c4c(c5cc(F)c[n+]1c5c32)C(=O)NC4=O` (centres unmarked) gave a remaining binding of 100% (KinomeScan; 0.1 µM; reference: untreated).
`Nc1ncc(-c2cc(-c3cnn(CC(F)(F)F)c3)ncc2F)nc1C(=O)NC1CNCC(F)C1` (centres unmarked) gave a remaining activity of 99.8% (enzyme activity; 1 µM; reference: DMSO control).
`COCC12C(=O)NC3C4(C(OC)CC1O)C1CC5(O)C(OC)C(O)C(OC(C)=O)(C1C5OC(=O)c1ccccc1)C3(O)C(OC)C24` (centres unmarked) has a remaining activity of 116% and 99% (kinase activity, inhibitor, ProQinase kinase profiling; 25 µM; reference: control).
For `CCN1CCN(Cc2ccc(C(=O)Nc3ccc(C)c(NCc4cnc5[nH]ccc5c4OC)c3)cc2C(F)(F)F)CC1`, the remaining binding was 72% (binding, competition with immobilised ligand; 1 µM).
`COc1c(OCCCN2CCOCC2)ccc2c1N=C(NC(=O)c1cnc(N)nc1)N1CCN=C21` has a remaining activity of 110% (kinase activity, inhibitor; 1 µM; reference: untreated control).
`NC(=O)[C@@H](O)C[C@H]1CCc2sc3ncnc(O[C@H]4CC[C@H](N5CCOCC5)CC4)c3c21` has an inhibition of 8% (enzyme activity, inhibitor; 10 µM).
`CC(C)=CC1OC(C)(C)C2C=C3C(=O)C(Cl)=CC(O)C3C3C(O)C4OC4C(=O)C132` (centres unmarked) has a remaining binding of 83% (cell-free assay, competition with immobilised ligand; 10 µM).
The inhibition of `Cc1cccc(O[C@H]2CCC[C@@H](C(C)CNCc3ccncc3)C2)c1` (relative stereo) is reported as -6% (cell-free assay; 10 µM).
For `C=CC(=O)N1Cc2nc(-c3cc(-c4cc(Cl)cnc4Cl)c(F)cc3F)n(-c3ccncn3)c2C1`, the inhibition was 4.1% (cell-free assay; 1 µM).
`C=CC(=O)Nc1cccc(-c2cnc3[nH]cc(C(=O)NC(C)(C)C)c3n2)c1` has an inhibition of -7% (enzyme activity, inhibitor; 0.1 µM).
The remaining binding of `C=CC(=O)N1CCCC(n2c(=O)c3ncccc3n(Cc3ccc(Oc4ccccc4)cc3)c2=O)C1` (centres unmarked) is reported as 90% (cell-free assay, competition with immobilised ligand; 1 µM).
The inhibition of `CCn1cc(C(=O)O)c(=O)c2c(N)c(F)c(NC3CCCCC3)cc21` is reported as -3.1% (kinase activity; 0.1 µM, added: ATP at Km).

Some of these lines once more:
`COc1c(OCCCN2CCOCC2)ccc2c1N=C(NC(=O)c1cnc(N)nc1)N1CCN=C21` has a remaining activity of 110% (kinase activity, inhibitor; 1 µM; reference: untreated control).
`NC(=O)[C@@H](O)C[C@H]1CCc2sc3ncnc(O[C@H]4CC[C@H](N5CCOCC5)CC4)c3c21` has an inhibition of 8% (enzyme activity, inhibitor; 10 µM).
